Measurements gathered from unrelated publications.
Lines come from different studies, so protocols differ. “And” joins repeats or separate records; there may be more than shown.
T1: itself; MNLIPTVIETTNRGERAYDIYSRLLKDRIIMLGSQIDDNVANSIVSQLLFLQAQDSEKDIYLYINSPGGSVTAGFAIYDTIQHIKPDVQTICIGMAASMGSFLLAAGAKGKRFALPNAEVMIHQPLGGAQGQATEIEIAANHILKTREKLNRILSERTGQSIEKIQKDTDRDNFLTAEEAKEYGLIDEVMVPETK
T2: itself; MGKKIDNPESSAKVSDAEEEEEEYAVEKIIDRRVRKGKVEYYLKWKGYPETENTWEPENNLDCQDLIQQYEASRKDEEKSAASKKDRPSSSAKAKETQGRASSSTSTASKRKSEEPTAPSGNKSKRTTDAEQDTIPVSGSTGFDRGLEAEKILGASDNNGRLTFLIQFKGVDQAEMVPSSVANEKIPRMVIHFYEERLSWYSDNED
T3: itself; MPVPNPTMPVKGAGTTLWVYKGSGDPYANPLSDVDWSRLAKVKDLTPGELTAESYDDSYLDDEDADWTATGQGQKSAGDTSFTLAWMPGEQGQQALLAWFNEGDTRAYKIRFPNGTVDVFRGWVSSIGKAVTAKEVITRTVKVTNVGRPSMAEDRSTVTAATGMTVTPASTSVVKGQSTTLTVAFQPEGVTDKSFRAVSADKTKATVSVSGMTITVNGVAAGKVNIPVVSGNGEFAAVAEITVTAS
B1: clpP 1-195 (Staphylococcus aureus, UniProt Q2G036); chain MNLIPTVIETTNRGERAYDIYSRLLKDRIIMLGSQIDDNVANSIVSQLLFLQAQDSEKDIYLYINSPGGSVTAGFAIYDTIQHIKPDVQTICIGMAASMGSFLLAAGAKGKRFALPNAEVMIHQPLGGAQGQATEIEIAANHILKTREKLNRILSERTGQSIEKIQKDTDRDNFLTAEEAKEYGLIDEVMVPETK

dye-decolorizing peroxidase (Klebsiella pneumoniae) — subunits per oligomer (itself; SEC): 6
UreE-F Q171A (Klebsiella aerogenes) — subunits per oligomer (itself; SEC): 2
B1 (clpP 1-195) — subunits per oligomer (T1, itself; crystal structure): 14
UreE-F G21A (Klebsiella aerogenes) — subunits per oligomer (itself; SEC): 2
Su(var)205 (Drosophila melanogaster, UniProt P05205) — subunits per oligomer (T2, itself; SEC-SAXS): 2
S HBsAg (hepatitis B virus) — subunits per oligomer (itself; non-reducing SDS-PAGE Western blot; Huh7, lysate): 2
comFB (Vibrio cholerae) — subunits per oligomer (itself; mass photometry; without c-di-GMP): 4
S HBsAg C124R (hepatitis B virus) — subunits per oligomer (itself; non-reducing SDS-PAGE Western blot; Huh7, lysate): 2
UreE-F L221A (Klebsiella aerogenes) — subunits per oligomer (itself; SEC): 2
insulin human — fold change (measured: EPHA5 mRNA; EcoHIV-infected mouse, brain; i.p., dose not given; baseline: PBS): 0.97
bltD (Enterococcus faecalis) — subunits per oligomer (itself; crystal structure; asymmetric unit dimer): 2
HBV core protein -10 to 151 C48A/C107A, intramolecular disulfide (hepatitis B virus) — subunits per oligomer (itself; AUC; oxidized, no DTT): 2
gor L416Q (Pseudomonas sp. JR-1) — subunits per oligomer (itself; SEC; pH 7.5, 4 °C): 2
HBV core protein -10 to 149 C48A/C107A, intramolecular disulfide (hepatitis B virus) — subunits per oligomer (itself; AUC; oxidized, no DTT): 2
gor F443A (Pseudomonas sp. JR-1) — subunits per oligomer (itself; SEC; pH 7.5, 4 °C): 2
UreE-F R220A (Klebsiella aerogenes) — subunits per oligomer (itself; SEC): 2
EspD fragment (Escherichia coli) — subunits per oligomer (itself; SEC): 2
CapV apo, wild type (Acinetobacter baumannii) — subunits per oligomer (itself; cryo-EM): 2
gor full length, wild type (Pseudomonas sp. JR-1) — subunits per oligomer (itself; SEC; pH 7.5, 4 °C): 2
PorB (Neisseria gonorrhoeae) — subunits per oligomer (itself; cross-linking): 3
bamA (Fusobacterium nucleatum) — subunits per oligomer (itself; cryo-EM): 2
Dengue envelope protein soluble ectodomain, no stem/transmembrane (Dengue virus serotype 2) — subunits per oligomer (itself; sucrose gradient sedimentation): 2
oseR (Streptococcus suis) — subunits per oligomer (itself; non-reducing SDS-PAGE): 2
HMWP (Physarum polycephalum) — subunits per oligomer (itself; AUC, SEC): 2
GluA4/TARPγ2 (Rattus norvegicus/Homo sapiens) — subunits per oligomer (itself; SEC): 4
AnmK (Pseudomonas aeruginosa) — subunits per oligomer (itself; AUC; 4 °C): 2 and 4
Ec78 retron ABC ATPase Q361L (Escherichia coli) — subunits per oligomer (itself; cryo-EM): 4
gor L416F (Pseudomonas sp. JR-1) — subunits per oligomer (itself; SEC; pH 7.5, 4 °C): 2
gpV tail tube protein (bacteriophage lambda, UniProt P03733) — subunits per oligomer (T3, itself; cryo-EM): 6
FraB full length, His6-SUMO fusion (Salmonella) — subunits per oligomer (itself; native MS): 2
porB (Neisseria gonorrhoeae) — subunits per oligomer (itself; cross-linking): 3
S HBsAg C138R (hepatitis B virus) — subunits per oligomer (itself; Western blot, non-reducing SDS-PAGE; Huh7, lysate, supernatant; disulfide bonds kept, not purified): 2
UreE-F E94A (Klebsiella aerogenes) — subunits per oligomer (itself; SEC): 2
MAM fragment (Mycoplasma arthritidis) — subunits per oligomer (itself; crystal structure): 2
Aca11 fragment (Streptococcus sp) — subunits per oligomer (itself; SEC): 2
F-BclA C-terminal domain (Bacillus thuringiensis subsp. kurstaki) — subunits per oligomer (itself; crystal structure): 3
encapsulin (Klebsiella pneumoniae) — subunits per oligomer (itself; cryo-EM): 60
UreE-F F222A (Klebsiella aerogenes) — subunits per oligomer (itself; SEC): 2
cmeC (Campylobacter jejuni) — subunits per oligomer (itself; SEC): 3
UreE-F H214A (Klebsiella aerogenes) — subunits per oligomer (itself; SEC): 2
HBV core protein -10 to 149 C48A/C107A/G123A, intramolecular disulfide (hepatitis B virus) — subunits per oligomer (itself; AUC; oxidized, no DTT): 2

Excerpt of the above:
PorB (Neisseria gonorrhoeae) — subunits per oligomer (itself; cross-linking): 3
bamA (Fusobacterium nucleatum) — subunits per oligomer (itself; cryo-EM): 2
Dengue envelope protein soluble ectodomain, no stem/transmembrane (Dengue virus serotype 2) — subunits per oligomer (itself; sucrose gradient sedimentation): 2
oseR (Streptococcus suis) — subunits per oligomer (itself; non-reducing SDS-PAGE): 2
HMWP (Physarum polycephalum) — subunits per oligomer (itself; AUC, SEC): 2
GluA4/TARPγ2 (Rattus norvegicus/Homo sapiens) — subunits per oligomer (itself; SEC): 4
